Experimental data from different studies.
Each numbered part is a random draw from the data of one study; scales do not carry over between parts.

Block 1
Target: RNA binding protein fox-1 homolog 2, RRM domain, GST-SBP tag (RBFOX2, Homo sapiens, UniProt O43251-10, residues 100-194)
Technique: RNA Bind-n-Seq
Form: RNA
Sample: in vitro
Tested at: 365 nM
Notes: natural RNA segment, single round, ends assumed
Reference: no-protein control
Reading: higher = stronger binding
Endpoint: RBNS enrichment (R)
Shared flanks, not repeated: GGGAGUUCUACAGUCCGACGAUC … UGGAAUUCUCGGGUGCCAA
Construct (chain): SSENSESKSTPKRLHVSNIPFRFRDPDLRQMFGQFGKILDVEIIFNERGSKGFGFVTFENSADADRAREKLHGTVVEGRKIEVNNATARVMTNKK
UUUUUUUUUUUUUUUUAAACUAGGAGAACCAAAUCUGGAAGCCAAAAUGUAGGCUUAGUUUGUGUGUUGUCUCUUGAGUUUGUCGCUCAUGUGUGCAACAGGGUAUGGAC: 0.695
UGUGGAGAAGGGGAAGGGAGGGACAGCUCACUGGUUCCUUCUGCAGUACCUCUGUGGUUAAAAAUGGAAACUGUUCUCCUCCCCAGCCCCACUCCCUGUUCCCUACCCAU: 0.301
CAAAGGCCCCGCAUCCCCAUCCUAGGAGUGCCCUAGAGACAAUUAAAUGUCCAUUCCUCUGGUGCUGCUGCUUGUGGUGUCCGGGUCCCUGCCUGGCAGAGGCAGAUAGU: 1
UAUUACCAUAGUGCGAUGUCGUUUUGUGCUAUUUUGAACAAUUAAAAGACUUUUUUUGAAAUAACCAUAGGUGUCUCACUGUGUCCCGGCAUCCUCUCAGGAAGCCUGAG: 0.293
ACUUGUUCCUCCAAAGCAGAACCCGGGAGGUUGCUAUCUGCCAGAAGCCUAGGCCAGCCAGAUACCACCAUUUGCUGCUUCAGGCUUGCCUGCCUGUUGUGAUAACCAGC: 0.284
UGCUUUUUUUCUCUAUUAUGGCAAAUAUUGAAUAUUCAUGAACAUAACUUGCUAAACAAGUAUUCCAAAAAUUUGAUCUAGUCAAUCCAUUGUGUGAAUCUCAAAUAUCU: 0.426
UGUUAGGAGAAAAUAUUUUCCAUCUUUUAACCUCUUAGUUGUCUAAGAGUUAAAUAUUACUGAAUUUCAGACGUUCAAAUUGAUCAUCAGAAAUCCUUUAAAACAAUUAC: 0.496

Block 2
Target: Fragile X messenger ribonucleoprotein 1, C-terminal low-complexity region (Fmr1, Mus musculus, UniProt P35922)
Technique: RNA Bind-n-Seq
Form: RNA
Sample: in vitro
Tested at: 200 nM
Notes: whole 134-nt RNA, ends assumed
Together with: 150 mM LiCl
Reference: input library
Reading: higher = stronger binding
Endpoint: log2 enrichment
Each molecule: 7-deaza-guanosine replaces G
GGGAGUUCUACAGUCCGACGAUCGCAGGAAGUAAAAACAAAUGGAAAUGCUUCGGAUAGUGGCAGGGGUGGGGGUUGCUAAGGAAAGGGUGGGAUGGGAGUGGGUAAGGAGUUUGGAAUUCUCGGGUGUCAAGG: 1.26
GGGAGUUCUACAGUCCGACGAUCGUCCUGUGCUACACAUCGUAUGUACCGAAUCAAACCCCCAAAUUUAAACCCCCCCAAAAAAGUAUUAUGUUACGCCGUUCGGAUCUGCACUGGAAUUCUCGGGUGUCAAGG: 1.46
GGGAGUUCUACAGUCCGACGAUCACCAUGCAGGUGGGCAUCUUUGGGAAGUGGGGCAAGGGGGGGAUAGGGAGGGGGGGAACACUUUGGGAACAGGUGGUCCCAGGUCGUUUCUGGAAUUCUCGGGUGUCAAGG: 1.16
GGGAGUUCUACAGUCCGACGAUCCUGUGCUACACAUCGUAUGUACCGAAUCGGGGUUUUUUUGGGUUUUUUUGGGGUUUUUUUGGAAAGUAUUAUGUUACGCCGUUCGGAUCUUGGAAUUCUCGGGUGUCAAGG: 1.29

Block 3
Target: RING finger protein unkempt homolog, zinc fingers 1-6, GST-SBP tag (UNK, Homo sapiens, UniProt Q9C0B0, residues 30-357)
Chain of UniProt Q9C0B0 (30-357, looked up): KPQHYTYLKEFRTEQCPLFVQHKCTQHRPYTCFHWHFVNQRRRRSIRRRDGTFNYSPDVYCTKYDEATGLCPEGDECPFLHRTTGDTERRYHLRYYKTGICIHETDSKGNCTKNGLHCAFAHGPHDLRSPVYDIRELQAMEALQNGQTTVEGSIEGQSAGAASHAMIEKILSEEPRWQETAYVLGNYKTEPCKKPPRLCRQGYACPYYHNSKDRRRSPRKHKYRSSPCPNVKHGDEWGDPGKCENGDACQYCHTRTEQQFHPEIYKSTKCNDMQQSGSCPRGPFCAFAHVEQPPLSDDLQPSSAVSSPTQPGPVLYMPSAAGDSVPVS
Technique: RNA Bind-n-Seq
Form: RNA
Sample: in vitro
Tested at: not given
Notes: RNA with constant flanks, human and mouse sites, ends assumed
Reference: input RNA pool
Reading: higher = stronger binding
Endpoint: bound/input enrichment
Shared flanks, not repeated: GGGAGUUCUACAGUCCGACGAUC … CAACAGAGGAUUGAGCAUCA
GGCUUCAAAAUUGACACUAUGGGAACCUACCAUGGUAUGACACUGAAAUCUGUAACGGAGGGUGCAUCUGCCCGGAAGACUCAGACUCCUGCAGCCCAGCCAGUACCAAGACCAGUUUCU: 0.126 ratio
CCAACAACAGUGACUAAAACAUUCAAGACAAGAAAAGCGUCUGCACAGGCCAGCCUGGCAUCUAAAGAUAAAACUCCCAAGUCAAAAAGUAAGAAGAGGAAUUCUACUCAGCUGAAAAGC: 0.333 ratio
CGGCCCAUGCAGCAAAUGCAGCCCACUGCGCCAAGGAACAGCAAUUUGCGUGAAUUACCCAUAGCGCCGUCACACGUGAUAGAAAUGAGCAGCAGCCGCUGCUCUGCCACGCCCUCAGCA: 0.256 ratio
UGGAAGCUUUGCUGAAAACCUUUCAUUUCUUCUGGAAGCUUUGCAAAAAGGUGACCGGACUAGCAGUUGCCCAGUGAUCUUCAUACUGGAUGAAUUUGAUAUUUUUGCUCAUCAGAAAAA: 0.587 ratio
UGAAACAAACAAGAGGUGGACUCAAGUGUGAGAACAUGUUCUUAGGUUCCACAUAUCAUAUCGCUCUCUGGAAUCAGGACAGAAAAAAGUCAUGACAUCUUGAGUUCCUUAAAUAUAGCG: 0.34 ratio

Other studies, line by line
PhoQ, residues 284 288 289 292 302 303 TNASYF  fold induction (PhoP, residues 12 14 15 18 19 HEGLL (Escherichia coli, UniProt P23836); Sort-seq, measured: YFP reporter; E. coli; PhoQ-PhoP variant library, together with: 10 µM Mg2+; reference: high Mg2+ state, higher = stronger signaling): 1.45

Excerpt of the above (block 1):
UGCUUUUUUUCUCUAUUAUGGCAAAUAUUGAAUAUUCAUGAACAUAACUUGCUAAACAAGUAUUCCAAAAAUUUGAUCUAGUCAAUCCAUUGUGUGAAUCUCAAAUAUCU: 0.426
UAUUACCAUAGUGCGAUGUCGUUUUGUGCUAUUUUGAACAAUUAAAAGACUUUUUUUGAAAUAACCAUAGGUGUCUCACUGUGUCCCGGCAUCCUCUCAGGAAGCCUGAG: 0.293
CAAAGGCCCCGCAUCCCCAUCCUAGGAGUGCCCUAGAGACAAUUAAAUGUCCAUUCCUCUGGUGCUGCUGCUUGUGGUGUCCGGGUCCCUGCCUGGCAGAGGCAGAUAGU: 1
